Experimental data collected from several papers.
Compare with care: the assays were run in different laboratories.
Target: Serine/threonine-protein kinase PRP4 homolog (PRPF4B, Homo sapiens, UniProt Q13523)

SMILES | test | system | setting | scale | measurement | result
Cc1ccc(-c2c(/C=C(\C#N)C(=O)NC(C)C)n(CCCO)c3ncnc(N)c23)cc1 | cell-free assay, competition with immobilised ligand | – | 1 µM | – | remaining binding | 100%
CNC1C[S+]2CC[S+]3CC[S+](C1)[Ru-4]321([N]=C=S)[n]2c3ccc(OC)cc3c3c4c(c5cc(F)c[n+]1c5c32)C(=O)NC4=O (centres unmarked) | KinomeScan | – | 0.1 µM | baseline: untreated | remaining binding | 100%
C=CC(=O)Nc1cc(-c2nn(C3CCN(CCNC(=O)[C@H](C)CCC45CC6CC(CC(C6)C4)C5)CC3)c3ncnc(N)c23)ccc1Oc1ccccc1 | inhibitor, KiNativ profiling | biochemical | 2 µM | – | inhibition | 7%
COc1cc(Nc2nccc(-c3cnn4nc(OC)ccc34)n2)cc(C(F)(F)F)c1 | binding, competition with immobilised ligand | – | 1 µM | – | remaining binding | 79%
O=C(Cc1ccc(OCc2ccccc2)cc1)NC1(C(=O)O)CCN(C(=O)c2ccc(-c3cccc(Cl)c3)cc2)CC1 | enzyme activity, inhibitor | – | 10 µM | – | activity vs control | 93%
CC(C)=CC1OC(C)(C)C2C=C3C(=O)C(Cl)=CC(O)C3C3C(O)C4OC4C(=O)C132 (centres unmarked) | cell-free assay, competition with immobilised ligand | – | 10 µM | – | remaining binding | 100%
CNC(=O)C1CCN(c2cc(C)c(F)cc2NC(=O)c2ccc(-c3cc(O)ccc3C)c(C)c2)CC1 | binding, competition with immobilised ligand | – | 1 µM | – | remaining binding | 94%
C=CC(=O)N1CCc2ccc(-n3c(=O)ccc4cnc5ccc(-c6cnn(C)c6)cc5c43)cc21 | KINOMEscan | – | 1 µM | baseline: DMSO control | remaining binding | 79%
COc1c(Cl)cccc1Nc1c(-c2ccncc2C#C[C@@]2(C)CCCN2C(=O)/C=C/CN(C)C)[nH]c2c1C(=O)NCC2 | cell-free assay, competition with immobilised ligand | – | 3 µM | – | remaining binding | 100%
C=CC(=O)N1CCCC(n2c(=O)c3ncccc3n(Cc3ccc(Oc4ccccc4)cc3)c2=O)C1 (centres unmarked) | cell-free assay, competition with immobilised ligand | – | 1 µM | – | remaining binding | 100%
Nc1ncc2c(n1)-c1c([nH]c3ccc(C4=CCOCC4)cc13)CCC2 | binding, competition with immobilised ligand | – | 1 µM | – | remaining binding | 91%
Cc1cnc2nc1Nc1cccc(c1)COC/C=C/COCc1cc(ccc1OCCN1CCOCC1)N2 | binding, competition with immobilised ligand | – | 0.1 µM | – | remaining binding | 100%
COc1cc(Nc2nc(C)cc(-c3cnn4nc(OC)ccc34)n2)cc(C(F)(F)F)c1 | inhibitor | – | 1 µM, PRP4 | baseline: control | remaining activity | 100%
CN1CC[C@@H](COc2cnc(C#N)cc2-c2ccn3nc(NC(=O)C4CC4)cc3c2)C1 | enzyme activity, inhibitor | – | 1 µM | – | inhibition | 1%

Excerpt of the above:
SMILES | test | system | setting | scale | measurement | result
COc1cc(Nc2nc(C)cc(-c3cnn4nc(OC)ccc34)n2)cc(C(F)(F)F)c1 | inhibitor | – | 1 µM, PRP4 | baseline: control | remaining activity | 100%
